Assay results from different studies.
Each numbered part is a random draw from the data of one study; scales do not carry over between parts. Substitutions count along the parent as printed.

Block 1 — target: CCNE1, cyclin fold, Cln2 fusion (human); technique: yeast growth competition, sequencing; medium: yeast; setting: strong parent motif; reference: not given; reading: higher = stronger binding
Starting sequence: E2F3 docking peptide (human); PPAKRRLELGESG
Under “normalised enrichment score”, `PPAKKRLEFGESG [R5K L9F]` is recorded as 2.5.
Under “normalised enrichment score”, `PPAKRRAELGESG [L7A]` is recorded as -0.0485.
For `PPAKARLELGESG [R5A]`, “normalised enrichment score” read 0.484.
For `PAAKRRLELGESG [P2A]`, “normalised enrichment score” read 0.944.
For `APAKRRLELGESG [P1A]`, “normalised enrichment score” read 0.595.
`PPAKRALELGESG [R6A]` — result for “normalised enrichment score”: 0.317.
Under “normalised enrichment score”, `PPAKRRLEAGESG [L9A]` is recorded as 0.91.

Block 2 — technique: RNA Bind-n-Seq; molecule type: RNA; medium: in vitro; tested at: 200 nM; setting: whole 134-nt RNA, ends assumed; with: 150 mM LiCl; reference: input library; reading: higher = stronger binding; library: 7-deaza-guanosine replaces G
Target: Ras GTPase-activating protein-binding protein 1, full length (G3BP1, Homo sapiens, UniProt Q13283)
UniProt Q13283, sequence (whole entry, looked up): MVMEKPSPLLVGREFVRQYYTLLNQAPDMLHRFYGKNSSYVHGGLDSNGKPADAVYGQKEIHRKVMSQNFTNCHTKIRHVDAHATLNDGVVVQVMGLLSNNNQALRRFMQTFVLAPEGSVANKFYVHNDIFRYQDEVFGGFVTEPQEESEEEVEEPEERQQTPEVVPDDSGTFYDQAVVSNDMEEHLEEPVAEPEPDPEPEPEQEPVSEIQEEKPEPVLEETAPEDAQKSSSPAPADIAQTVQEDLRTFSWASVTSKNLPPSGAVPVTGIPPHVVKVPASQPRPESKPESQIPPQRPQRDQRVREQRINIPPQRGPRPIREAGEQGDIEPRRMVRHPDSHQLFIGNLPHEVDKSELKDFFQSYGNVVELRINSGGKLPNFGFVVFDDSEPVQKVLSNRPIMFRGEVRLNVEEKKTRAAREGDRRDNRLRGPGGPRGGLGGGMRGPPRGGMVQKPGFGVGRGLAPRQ
For `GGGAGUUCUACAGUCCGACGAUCUUCUGACUCAGAAUGUGCCAAAAAGGCUUUGGAACAACUUAAUGGAUUUGAACUAGCAGGAAGACCAAUGAAAGUUGGUCAUGUUACUGAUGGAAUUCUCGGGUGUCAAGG`, the log2 enrichment was -2.68.
The log2 enrichment of `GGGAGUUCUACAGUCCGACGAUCACCAUGCAGGUGGGCAUCUUUGGGAAGUGUGGCAAGGGGGGGAUAGGGAGGGGGGUAACACUUUGGGAACAGGUGGUCCCAGGUCGUUUCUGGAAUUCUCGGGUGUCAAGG` is reported as 0.411.
With `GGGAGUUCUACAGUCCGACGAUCGCAGGAAGUAAAAACAAAUGGAAAUGCUUCGGAUAGUGGCAGGGGUGGGGGUAGCUAAGGAAAGGGUGGGAUGGGAGUGGGUAAAGAGUUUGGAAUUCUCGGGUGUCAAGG` the log2 enrichment was 0.547.
The log2 enrichment of `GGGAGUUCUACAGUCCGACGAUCGUCCUGUGCUACACAUCGUAUGUACCGAAUCGGUUUUUGGUUUUUUUGGAAAAAAAGGAAAGUAUUAUGUUACGCCGUUCGGAUCUGCACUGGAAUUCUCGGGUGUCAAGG` is reported as -1.69.
`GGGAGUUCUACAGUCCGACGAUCUGUGCUACACAUCGUAUGUACCGAAUCGUGUGUGUGUGUGUGUGUGUGUGUGUGUGUGUGUGUAAAGUAUUAUGUUACGCCGUUCGGAUCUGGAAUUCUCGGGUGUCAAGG` gave a log2 enrichment of -0.24.
`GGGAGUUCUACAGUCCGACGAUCGCAGGAAGGAAAAACAAAUGGAAAUGCUUCGGAUAGUGGCAGGGGUGGGGGUUGCUAAGGAAAGGGUGGGAUGGGAGUGGGUAAAGAGUUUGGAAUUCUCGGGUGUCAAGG` gave a log2 enrichment of -0.111.
For `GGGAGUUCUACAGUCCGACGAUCCUGUGCUACACAUCGUAUGUACCGAAUCGGGGUUUUUUUGGGGAAAAAGGGGUUUUUGGGGAAAGUAUUAUGUUACGCCGUUCGGAUCUGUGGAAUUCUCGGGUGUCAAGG`, the log2 enrichment was -1.55.
`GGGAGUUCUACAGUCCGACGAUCCCUGUGCUACACAUCGUAUGUACCGAAUCAAAGUGUGUGUGUGUAAAGUGUGUGUGUAAAAAAGUAUUAUGUUACGCCGUUCGGAUCUGCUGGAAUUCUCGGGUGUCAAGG` has a log2 enrichment of -0.978.

Block 3 — target: UBE2D1 UBC core domain (UniProt P51668); technique: yeast two-hybrid; medium: yeast; setting: mostly zero background; reference: not given; reading: higher = stronger interaction
B1: RNF25 RING domain (UniProt Q96BH1); chain LTDNNIPHGQCVICLYGFQEKEAFTKTPCYHYFHCHCLARYIQHMEQELKAQGQEQEQERQHATTKQKAVGVQCPVCREPLVYDLASL
B2: PHF21A RING domain (UniProt Q96BD5); chain SPTSTDGDIHEDFCSVCRKSGQLLMCDTCSRVYHLDCLDPPLKTIPKGMWICPRCQDQMLKKEEAIPW
B3: TRIM8 RING domain (UniProt Q9BZR9); chain WKNCFEEELICPICLHVFVEPVQLPCKHNFCRGCIGEAWAKDSGLVRCPECNQAYNQKPGLE
B4: IRF2BPL RING domain (UniProt Q9H1B7); chain SPMANSGPLCCTICHERLEDTHFVQCPSVPSHKFCFPCSRESIKAQGATGEVYCPSGEKCPLVGSNVP
B5: ZNF598 RING domain (UniProt Q86UK7); chain AAAPERGGGSCVLCCGDLEATALGRCDHPVCYRCSTKMRVLCEQRYCAVCREELRQVVFGK
Residues (chain): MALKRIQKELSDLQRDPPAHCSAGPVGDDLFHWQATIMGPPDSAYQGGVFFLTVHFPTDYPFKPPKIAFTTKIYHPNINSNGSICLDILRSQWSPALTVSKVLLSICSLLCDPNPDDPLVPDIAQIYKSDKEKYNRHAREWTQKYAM
`QHHELTSLFECPVCFDYVLPPILQCQAGHLVCNQCRQKLSCCPTCRGALTPSIRNL (SIAH2 RING domain (UniProt O43255))` — result for “lacZ reporter activity”: 0.
`PEELQAMDNVCIICREEMVTGAKRLPCNHIFHTSCLRSWFQRQQTCPTCRMDVLRASLPA (SYVN1 RING domain (UniProt Q86TM6))`: “lacZ reporter activity” 0.
For `B1 (RNF25 RING domain)`, “lacZ reporter activity” read 5380.
For `B2 (PHF21A RING domain)`, “lacZ reporter activity” read 0.
For `QLRRLQEERTCKVCMDKEVSIVFIPCGHLVVCKDCAPSLRKCPICRSTIKGTVRTF (BIRC3 RING domain (UniProt Q13489))`, “lacZ reporter activity” read 0.
`B3 (TRIM8 RING domain)`: “lacZ reporter activity” 0.
`B4 (IRF2BPL RING domain)` — result for “lacZ reporter activity”: 0.
`QLQDIKEQTMCPVCLDRLKNMIFLCGHGTCQLCGDRMSECPICRKAIERRILLY (MIB1 RING domain (UniProt Q86YT6))` — result for “lacZ reporter activity”: 11700.
`B5 (ZNF598 RING domain)`: “lacZ reporter activity” 0.
`KTLSRFGIQPCSICLGDAKDPVCLPCDHVHCLRCLRAWFASEQMICPYCLTALPDEFSPA (RNF213 RING domain (UniProt Q63HN8))`: “lacZ reporter activity” 0.
`VTLSLTLPITCHICLGKVRQPVICINNHVFCSICIDLWLKNNSQCPACRVPITPENPCK (OBI1 RING domain (UniProt Q5W0B1))`: “lacZ reporter activity” 0.

Block 4 — technique: DHFR PCA, deep sequencing; medium: yeast; with: (+)-ABA 4.8 µM; reference: wild-type fitted maximum; reading: higher = stronger binding
Target: ABI1, truncated, D143A, DHFR fusion (Arabidopsis thaliana)
Setting: methotrexate growth selection, single substitutions
Starting sequence: PYL1, truncated, DHFR fusion (Arabidopsis thaliana); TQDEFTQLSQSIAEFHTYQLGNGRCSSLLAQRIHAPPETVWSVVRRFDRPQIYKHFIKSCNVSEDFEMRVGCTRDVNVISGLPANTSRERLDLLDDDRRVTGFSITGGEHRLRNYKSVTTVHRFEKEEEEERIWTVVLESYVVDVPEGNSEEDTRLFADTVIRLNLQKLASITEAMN
`T86F`: “relative binding score” 72.7%.
Under “relative binding score”, `T119V` is recorded as 14.4%.
Under “relative binding score”, `R74I` is recorded as 8.74%.
Under “relative binding score”, `V118M` is recorded as 53%.
For `R163D`, “relative binding score” read -7.94%.
Under “relative binding score”, `R113L` is recorded as 50.4%.
Under “relative binding score”, `S87E` is recorded as -3.38%.
For `R46N`, “relative binding score” read 15.2%.
`Q31S` — result for “relative binding score”: -8.36%.
`S104N`: “relative binding score” 16.3%.
For `T39M`, “relative binding score” read 72.8%.

Block 5 — technique: competition protein-binding microarray; molecule type: double-stranded DNA, one strand shown; medium: in vitro; tested at: 2 µM; with: Pho4 competitor, 0.05 µM; reading: higher = stronger binding
Target: Centromere-binding protein 1, full length, His-tagged (CBF1, Saccharomyces cerevisiae, UniProt P17106, residues 1-351)
UniProt P17106, sequence (whole entry, looked up): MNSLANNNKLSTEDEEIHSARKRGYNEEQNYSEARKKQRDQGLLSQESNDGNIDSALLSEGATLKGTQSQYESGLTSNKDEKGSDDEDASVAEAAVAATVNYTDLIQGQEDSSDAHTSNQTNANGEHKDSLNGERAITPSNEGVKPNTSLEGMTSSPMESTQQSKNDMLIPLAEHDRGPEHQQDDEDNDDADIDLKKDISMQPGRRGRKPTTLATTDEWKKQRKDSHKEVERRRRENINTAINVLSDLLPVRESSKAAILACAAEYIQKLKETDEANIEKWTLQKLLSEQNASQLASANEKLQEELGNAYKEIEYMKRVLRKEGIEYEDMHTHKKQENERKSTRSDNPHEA
Setting: whole 60-bp probe, lowest competitor level
`TAACCATTTCTTCCTGTCGTGGGTAGTTCATACCATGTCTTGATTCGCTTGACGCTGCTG` has a fluorescence intensity of 86.6 a.u.
The fluorescence intensity of `CGGGGTTAAGTTTGAGTGGTGGGTGGCTTGCAGCAGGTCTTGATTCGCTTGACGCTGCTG` is reported as 71.6 a.u.
`CTTCTGTAAATTTGAACTGTGGGTGGACGCGCCCCGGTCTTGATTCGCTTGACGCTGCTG` gave a fluorescence intensity of 76.2 a.u.
For `CTAACGAAGGTTTTTCACGTGATTTACAAGCCAAGTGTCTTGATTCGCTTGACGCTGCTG`, the fluorescence intensity was 4530 a.u.
`GCTGATATCTACGTACATGTGTATACTTGCCAATATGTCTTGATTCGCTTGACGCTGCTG` gave a fluorescence intensity of 133 a.u.
`CATACCCAACCTTGTCACTCAACTTAAGATATTTGTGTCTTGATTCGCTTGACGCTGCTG` gave a fluorescence intensity of 69.1 a.u.
The fluorescence intensity of `CAAAACGTTAGTTTAGTCGTGCTAAACCGCTATTTTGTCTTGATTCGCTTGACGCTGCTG` is reported as 77.9 a.u.
With `TCAAGTATCTTTTAGCACGTATCAGATAACTAATGGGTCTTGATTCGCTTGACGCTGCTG` the fluorescence intensity was 99.8 a.u.
`TTAGGGCATTTTCGTCACACGGTAGTGCTCCAGATGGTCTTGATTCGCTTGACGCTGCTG` gave a fluorescence intensity of 79.7 a.u.
`GATCGATTCGGCTGTCATGCCAAGATGCGAGTATGTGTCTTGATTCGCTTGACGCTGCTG` has a fluorescence intensity of 67.5 a.u.
`CATACCCAACCTTGATAAGTGGGTGAAGATATTTGTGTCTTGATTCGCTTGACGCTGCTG` gave a fluorescence intensity of 64.1 a.u.
For `GTCCCATTCAATGAGCACATGCCTTGTGTAGTTTTGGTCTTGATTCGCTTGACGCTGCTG`, the fluorescence intensity was 154 a.u.
With `TTTTTCATCGACCGTCACGTGACGGGCTGAGGTTAAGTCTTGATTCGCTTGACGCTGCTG` the fluorescence intensity was 17600 a.u.
`AAATTACTAAGTTGACCGGTGGGTGACGCCGTATGAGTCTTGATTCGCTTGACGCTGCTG` gave a fluorescence intensity of 75.8 a.u.
`TCTATTCCGCGGTAACCTATGGTTACGGCCAGATTTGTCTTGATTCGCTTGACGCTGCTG` has a fluorescence intensity of 53.1 a.u.
With `GATAAGAGAGCACAGCACGTGGGTAAAGAGAGATACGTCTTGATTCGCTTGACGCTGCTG` the fluorescence intensity was 917 a.u.
For `CTAACGAAGGTTTGCGCAGTGGGTGACAAGCCAAGTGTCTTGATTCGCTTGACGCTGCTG`, the fluorescence intensity was 77.9 a.u.
For `AACGAAATCCACCATCACGTTCCTAGCAACAAGAGGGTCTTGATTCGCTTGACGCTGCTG`, the fluorescence intensity was 281 a.u.
With `CGGGGTTAAGTTTGTCACGGGACTTGCTTGCAGCAGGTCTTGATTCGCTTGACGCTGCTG` the fluorescence intensity was 1330 a.u.

Excerpt of the above (block 1):
Under “normalised enrichment score”, `PPAKKRLEFGESG [R5K L9F]` is recorded as 2.5.
For `PPAKARLELGESG [R5A]`, “normalised enrichment score” read 0.484.
`PPAKRALELGESG [R6A]` — result for “normalised enrichment score”: 0.317.
For `PAAKRRLELGESG [P2A]`, “normalised enrichment score” read 0.944.
Under “normalised enrichment score”, `PPAKRRAELGESG [L7A]` is recorded as -0.0485.
Under “normalised enrichment score”, `PPAKRRLEAGESG [L9A]` is recorded as 0.91.
For `APAKRRLELGESG [P1A]`, “normalised enrichment score” read 0.595.
